Assay results from different studies.
A part holds a random share of what one study measured. Substitutions count along the parent as printed.

Block 1
Target: CCNF, cyclin fold, Cln2 fusion (human)
Technique: yeast growth competition, sequencing
Sample: yeast
Notes: weak parent motif
Relative to: not given
Direction: higher = stronger binding
Measurement: normalised enrichment score
Starting sequence: DNAH7 docking peptide (human); HELFQRLDFDNDG
Change = HELFQRLDFDNAG [D12A]; result = 0.768
Change = HELFQRLDFDADG [N11A]; result = -0.243
Change = HELFQRLAFDNDG [D8A]; result = -0.102
Change = HELFQRLDFDNDA [G13A]; result = -0.0738
Change = HEAFQRLDFDNDG [L3A]; result = -0.337
Change = HELFARLDFDNDG [Q5A]; result = 0.212

Block 2
Target: RNA binding protein fox-1 homolog 2, RRM domain, GST-SBP tag (RBFOX2, Homo sapiens, UniProt O43251-10, residues 100-194)
Technique: RNA Bind-n-Seq
Form: RNA
Sample: in vitro
Tested at: 365 nM
Notes: natural RNA segment, single round, ends assumed
Relative to: no-protein control
Direction: higher = stronger binding
Measurement: RBNS enrichment (R)
Constant ends, left off below: GGGAGUUCUACAGUCCGACGAUC … UGGAAUUCUCGGGUGCCAA
Construct (chain): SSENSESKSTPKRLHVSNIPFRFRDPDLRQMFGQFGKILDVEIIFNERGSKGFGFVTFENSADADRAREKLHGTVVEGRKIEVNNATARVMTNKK
Oligonucleotide = AGUCAUAAAACCAUGAGAAAUAAAUAGGAAUCAAUAGUUAGUAGUGACAUUGGUGCUCUCUAGAAAUCUCAGCAUGAGCUGCUAUAGAAUACCCUCCCAGCAACAAAACC; result = 2.01
Oligonucleotide = GGCUUUGAUUCCAUCUCCUUGUCUUUUUUCUUUGUUUUUAGAGACAGGGUCCUGCUAUUUCCCAAGCUGGAGUGCAGUGGUGCGAUCAUGGCUCACUGCAGCCUCGAACU; result = 0.224
Oligonucleotide = AACUACAUCCUGGGCCUGGAAUAUGAUGAAGAGCAUCAGUGGAAAACCCACCCCACACGCCAUGGACCUCAGGGCACUCUCCUCCCUGCCCACAAAGACCUCCUGGGUGG; result = 0.948
Oligonucleotide = CAAUAUUUUUGUUGUGUAUAGAUGUCUAAGAACCAACACUACUCAGUCUCCUGCUAGUCUGACUCCUGAAGCAUCAGACCCUGUCAUACUGUAUUGACUGUGUAUGUGCC; result = 0.415
Oligonucleotide = ACCUAGAGUGCAUCCUGCUCAUUGUCAGUGUAGCCCCUCGCCCCUAUAUUCAUCCAGGAUACUUGGAAGUGCUAAAAUAGGAAGGGAUUCGGCUUUCAACUUUGCUACCA; result = 0.403
Oligonucleotide = CCAGCUCCCUGCAGCCCCUCCCCCUACGUGCAACUGACACUCCUACCCAGUCAAAGCUCUGCCUUUCAGCCCACGUCAUACGUAGUGUCCAUCUUGUGAAGCCCUGUUGU; result = 0.941
Oligonucleotide = AGGAACUUCCGCACCUCCUGAGGCCCUGGAUGAUUCUAAUUGUUAGAAAUUCUAAUUGUUAGAAAUCCUUCCUUAUAAUGAAUGAAUUCUGCUUUCCUAUAAUUUCUACC; result = 0.26
Oligonucleotide = CAAUAAAUGGGAGGAAUGGGUGUAGAGUUGAUGCAGCCAAGAAUGUCCGUCCUCUGGGCGGCACAAGUCCCGCAGGCUCUGUGUCUGUUAGGUGAUGGAGCCCAUUCAAG; result = 0.269
Oligonucleotide = UCUUCUGUUAAGAGUGACUGUUCAUUCAGGGAGCUGAGAAUUCUGGCACAGAUCUUUGUCCCAAGCCUUCCUACUAUUCUUGCCUUAUUCUUAGUAUGCGUUGCAUCGGG; result = 0.607
Oligonucleotide = ACAUAUGUGCAGAAGGUUACUACCUAGGGUUUAUGCUUAAUUUUAAUUGGAGGAAAUGAAUGCUGAUUGUAACGGAGUUAAUUUUAUUGAUAAUAAAUUAUACACUAUGA; result = 2.64

Block 3
Molecule: PhoQ, residues 284 288 289 292 302 303 SSTLLI
Technique: Sort-seq
Refers to: YFP reporter
Sample: E. coli
Notes: PhoQ-PhoP variant library
Together with: 10 µM Mg2+
Relative to: high Mg2+ state
Direction: higher = stronger signaling
Measurement: fold induction
target = PhoP, residues 12 14 15 18 19 SHWTV (Escherichia coli, UniProt P23836); result = 0.928
target = PhoP, residues 12 14 15 18 19 STHWV (Escherichia coli, UniProt P23836); result = 0.644
target = PhoP, residues 12 14 15 18 19 QYCSL (Escherichia coli, UniProt P23836); result = 10.3

Block 4
Target: RING finger protein unkempt homolog, zinc fingers 1-6, GST-SBP tag (UNK, Homo sapiens, UniProt Q9C0B0, residues 30-357)
Sequence of UniProt Q9C0B0 (30-357, looked up): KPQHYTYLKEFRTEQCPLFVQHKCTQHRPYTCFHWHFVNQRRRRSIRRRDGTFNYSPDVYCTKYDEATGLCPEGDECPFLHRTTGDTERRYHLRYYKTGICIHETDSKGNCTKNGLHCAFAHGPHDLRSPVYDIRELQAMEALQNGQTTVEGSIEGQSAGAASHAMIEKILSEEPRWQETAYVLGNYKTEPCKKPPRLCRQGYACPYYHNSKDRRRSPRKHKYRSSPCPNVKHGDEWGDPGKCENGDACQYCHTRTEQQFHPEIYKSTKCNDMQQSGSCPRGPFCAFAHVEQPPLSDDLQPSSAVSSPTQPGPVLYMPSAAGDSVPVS
Technique: RNA Bind-n-Seq
Form: RNA
Sample: in vitro
Tested at: not given
Notes: RNA with constant flanks, ends assumed
Relative to: input RNA pool
Direction: higher = stronger binding
Measurement: bound/input enrichment
Constant ends, left off below: GGGAGUUCUACAGUCCGACGAUC … CAACAGAGGAUUGAGCAUCA
Oligonucleotide = AACUCUAGAGCUCCCCCAAGACUGACUGUAGUGUCCCCUAACCGAGCUACUUCAACGGAAACCCGCUCAUCUGUAGAGACUGAUUUGCAACCCUUCCGGGAAGCCAUAGCUCUGCAUGGU; result = 0.629 ratio
Oligonucleotide = GAGAUGAAGAAGAAGAUUAACCUGGAGUUAAGGAACAGAUCCCCGGAGGAGGUGACAGAGUCCGUCCUUGAUAAUUGCCUGUGUGUCAAUGGGGAAAUUGAAGGCCUGAAUGAUACUUUC; result = 0.251 ratio
Oligonucleotide = AAGGGUGAUUACUUCCGGUACCUUGCUGAAGUUGCGUGUGGUGAUGAUCGAAAACAAACGACCGAUAAUUCCCAAGGAGCUUACCAAGAGGCAUUUGAUAUAAGCAAGAAAGAGAUGCAA; result = 0.184 ratio
Oligonucleotide = CUUCGGGCUGCUAAUAUUCUUGUAGGAGAAAAUCUUGUGUGCAAAAUAGCAGACUUUGGUUCCGCAAGGUUAAUUGAAGACAAUGAAUACACAGCAAGACAAGGUGCAAAAUUUCCAAUC; result = 1.2 ratio
Oligonucleotide = UCUUUUUGAGGGUCCUUUUGUUUUCCUUUGCUUUUCUUUUGGCCUUCCCUCUGUCUUUCACUCCGACCAGCUAUUUGAAAGGGCAGACGAUGCUAAAGGUGUACUGUGCAGCUUGUUUAG; result = 0.318 ratio

For quick reference, copied from above (block 1):
Change = HEAFQRLDFDNDG [L3A]; result = -0.337
Change = HELFQRLDFDNAG [D12A]; result = 0.768
Change = HELFARLDFDNDG [Q5A]; result = 0.212
